Experimental data collected from several papers.
Values joined by “and” are separate records of one study, mostly repeats; a detail may differ. ± marks the error that the study gave.
F12: Coagulation factor XII (F12, Homo sapiens, UniProt P00748)
UniProt P00748, sequence (whole entry, looked up): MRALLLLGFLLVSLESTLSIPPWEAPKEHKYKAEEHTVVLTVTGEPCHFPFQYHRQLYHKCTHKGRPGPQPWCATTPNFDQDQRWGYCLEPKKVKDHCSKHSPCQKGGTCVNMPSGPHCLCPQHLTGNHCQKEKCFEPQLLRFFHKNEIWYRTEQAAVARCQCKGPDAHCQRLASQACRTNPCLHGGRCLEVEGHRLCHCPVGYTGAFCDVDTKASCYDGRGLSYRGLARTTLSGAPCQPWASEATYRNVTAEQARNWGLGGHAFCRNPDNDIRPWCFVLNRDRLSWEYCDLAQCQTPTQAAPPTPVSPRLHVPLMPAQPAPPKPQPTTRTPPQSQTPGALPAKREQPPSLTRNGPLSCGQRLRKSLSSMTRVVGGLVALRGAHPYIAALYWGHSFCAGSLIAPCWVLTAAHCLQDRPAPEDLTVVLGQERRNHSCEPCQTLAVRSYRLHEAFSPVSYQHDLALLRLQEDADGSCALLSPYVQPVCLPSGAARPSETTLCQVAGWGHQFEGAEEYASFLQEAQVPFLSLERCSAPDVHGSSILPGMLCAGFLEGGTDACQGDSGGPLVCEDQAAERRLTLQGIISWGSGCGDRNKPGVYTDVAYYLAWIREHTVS
Low molecular weight phosphotyrosine protein phosphatase isoform A: Low molecular weight phosphotyrosine protein phosphatase, isoform A (Mus musculus, UniProt Q9D358)
UniProt Q9D358, sequence (whole entry, looked up): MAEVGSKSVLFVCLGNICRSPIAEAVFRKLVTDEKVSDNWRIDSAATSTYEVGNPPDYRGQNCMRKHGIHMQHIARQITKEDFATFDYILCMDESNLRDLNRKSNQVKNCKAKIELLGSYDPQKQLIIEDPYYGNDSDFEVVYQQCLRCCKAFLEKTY
Pancreatic alpha-amylase: Pancreatic alpha-amylase (Homo sapiens, UniProt P04746)
UniProt P04746, sequence (whole entry, looked up): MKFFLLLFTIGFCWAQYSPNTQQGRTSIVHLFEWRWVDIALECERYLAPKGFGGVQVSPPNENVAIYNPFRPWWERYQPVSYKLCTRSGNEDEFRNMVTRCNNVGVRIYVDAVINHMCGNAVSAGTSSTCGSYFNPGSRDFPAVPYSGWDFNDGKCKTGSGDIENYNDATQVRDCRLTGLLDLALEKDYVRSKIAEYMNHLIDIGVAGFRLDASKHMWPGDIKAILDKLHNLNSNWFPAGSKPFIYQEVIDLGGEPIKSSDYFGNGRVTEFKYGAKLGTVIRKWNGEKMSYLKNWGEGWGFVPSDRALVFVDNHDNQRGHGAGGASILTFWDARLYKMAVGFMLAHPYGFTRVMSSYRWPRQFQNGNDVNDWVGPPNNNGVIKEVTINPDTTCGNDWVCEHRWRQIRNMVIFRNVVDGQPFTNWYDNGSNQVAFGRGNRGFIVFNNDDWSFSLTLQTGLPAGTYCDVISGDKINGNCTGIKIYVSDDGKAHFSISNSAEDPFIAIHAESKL
Urease subunit alpha: Urease subunit alpha (Sporosarcina pasteurii, UniProt P41020)
UniProt P41020, sequence (whole entry, looked up): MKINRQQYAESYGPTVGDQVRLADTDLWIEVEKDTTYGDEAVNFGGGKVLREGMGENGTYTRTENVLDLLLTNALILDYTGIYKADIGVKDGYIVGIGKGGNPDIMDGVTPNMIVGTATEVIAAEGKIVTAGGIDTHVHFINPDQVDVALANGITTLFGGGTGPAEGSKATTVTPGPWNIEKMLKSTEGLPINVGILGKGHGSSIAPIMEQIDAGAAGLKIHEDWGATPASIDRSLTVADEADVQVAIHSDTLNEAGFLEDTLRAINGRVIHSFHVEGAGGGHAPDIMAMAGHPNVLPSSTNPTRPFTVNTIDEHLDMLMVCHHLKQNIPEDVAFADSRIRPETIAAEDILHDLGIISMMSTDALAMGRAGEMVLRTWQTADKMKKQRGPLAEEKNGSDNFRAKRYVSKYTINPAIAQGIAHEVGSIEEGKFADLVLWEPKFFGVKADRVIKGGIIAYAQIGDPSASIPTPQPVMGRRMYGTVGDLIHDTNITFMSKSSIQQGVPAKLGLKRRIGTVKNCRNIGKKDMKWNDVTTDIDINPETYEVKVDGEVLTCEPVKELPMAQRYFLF
Serotonin N-acetyltransferase: Serotonin N-acetyltransferase (Ovis aries, UniProt Q29495)
UniProt Q29495, sequence (whole entry, looked up): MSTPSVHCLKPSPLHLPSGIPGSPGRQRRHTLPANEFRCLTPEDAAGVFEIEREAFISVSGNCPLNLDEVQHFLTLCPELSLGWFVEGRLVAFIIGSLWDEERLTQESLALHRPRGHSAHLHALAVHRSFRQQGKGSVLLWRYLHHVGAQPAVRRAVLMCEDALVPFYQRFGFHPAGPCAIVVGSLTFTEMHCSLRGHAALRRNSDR
MAL12: Alpha-glucosidase MAL12 (MAL12, Saccharomyces cerevisiae S288c, UniProt P53341)
UniProt P53341, sequence (whole entry, looked up): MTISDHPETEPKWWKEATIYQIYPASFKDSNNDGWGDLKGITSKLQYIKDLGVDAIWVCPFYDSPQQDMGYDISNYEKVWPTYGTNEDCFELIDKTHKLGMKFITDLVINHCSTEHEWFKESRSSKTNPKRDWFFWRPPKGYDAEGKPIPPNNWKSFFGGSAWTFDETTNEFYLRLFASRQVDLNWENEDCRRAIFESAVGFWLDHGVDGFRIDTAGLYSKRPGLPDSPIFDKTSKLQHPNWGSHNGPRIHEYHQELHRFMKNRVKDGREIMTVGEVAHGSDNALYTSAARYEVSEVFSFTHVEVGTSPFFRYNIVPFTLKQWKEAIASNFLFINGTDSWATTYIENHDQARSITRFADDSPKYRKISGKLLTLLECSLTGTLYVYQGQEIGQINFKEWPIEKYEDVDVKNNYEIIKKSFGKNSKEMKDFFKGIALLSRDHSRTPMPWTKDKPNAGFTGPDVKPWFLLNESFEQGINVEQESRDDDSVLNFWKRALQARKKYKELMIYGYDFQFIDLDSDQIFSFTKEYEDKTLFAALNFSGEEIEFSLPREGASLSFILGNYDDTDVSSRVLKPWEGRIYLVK
EGFR: Epidermal growth factor receptor (EGFR, Homo sapiens, UniProt P00533)
UniProt Q99436, sequence (whole entry, looked up): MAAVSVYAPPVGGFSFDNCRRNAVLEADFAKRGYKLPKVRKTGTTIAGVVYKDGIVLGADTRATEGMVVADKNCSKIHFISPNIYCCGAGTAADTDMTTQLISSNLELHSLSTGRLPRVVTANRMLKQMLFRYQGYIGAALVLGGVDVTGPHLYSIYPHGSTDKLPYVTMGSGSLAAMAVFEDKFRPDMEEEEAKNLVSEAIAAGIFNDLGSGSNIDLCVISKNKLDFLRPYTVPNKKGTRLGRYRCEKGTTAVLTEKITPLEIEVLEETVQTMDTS
UniProt P49720, sequence (whole entry, looked up): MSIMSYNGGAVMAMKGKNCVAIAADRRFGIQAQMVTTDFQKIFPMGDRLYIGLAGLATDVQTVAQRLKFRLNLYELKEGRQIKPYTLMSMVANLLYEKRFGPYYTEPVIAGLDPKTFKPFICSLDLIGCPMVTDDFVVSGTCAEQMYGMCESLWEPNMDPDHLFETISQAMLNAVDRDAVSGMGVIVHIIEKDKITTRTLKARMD
UniProt Q6ZN17, sequence (whole entry, looked up): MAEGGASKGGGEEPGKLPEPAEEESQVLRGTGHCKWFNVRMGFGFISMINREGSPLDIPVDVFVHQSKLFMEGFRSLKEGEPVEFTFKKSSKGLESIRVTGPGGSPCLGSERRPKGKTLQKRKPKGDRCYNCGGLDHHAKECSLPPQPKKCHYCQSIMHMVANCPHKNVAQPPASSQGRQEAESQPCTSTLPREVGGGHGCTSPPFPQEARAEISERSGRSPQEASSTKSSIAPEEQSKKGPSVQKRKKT
UniProt P54764, sequence (whole entry, looked up): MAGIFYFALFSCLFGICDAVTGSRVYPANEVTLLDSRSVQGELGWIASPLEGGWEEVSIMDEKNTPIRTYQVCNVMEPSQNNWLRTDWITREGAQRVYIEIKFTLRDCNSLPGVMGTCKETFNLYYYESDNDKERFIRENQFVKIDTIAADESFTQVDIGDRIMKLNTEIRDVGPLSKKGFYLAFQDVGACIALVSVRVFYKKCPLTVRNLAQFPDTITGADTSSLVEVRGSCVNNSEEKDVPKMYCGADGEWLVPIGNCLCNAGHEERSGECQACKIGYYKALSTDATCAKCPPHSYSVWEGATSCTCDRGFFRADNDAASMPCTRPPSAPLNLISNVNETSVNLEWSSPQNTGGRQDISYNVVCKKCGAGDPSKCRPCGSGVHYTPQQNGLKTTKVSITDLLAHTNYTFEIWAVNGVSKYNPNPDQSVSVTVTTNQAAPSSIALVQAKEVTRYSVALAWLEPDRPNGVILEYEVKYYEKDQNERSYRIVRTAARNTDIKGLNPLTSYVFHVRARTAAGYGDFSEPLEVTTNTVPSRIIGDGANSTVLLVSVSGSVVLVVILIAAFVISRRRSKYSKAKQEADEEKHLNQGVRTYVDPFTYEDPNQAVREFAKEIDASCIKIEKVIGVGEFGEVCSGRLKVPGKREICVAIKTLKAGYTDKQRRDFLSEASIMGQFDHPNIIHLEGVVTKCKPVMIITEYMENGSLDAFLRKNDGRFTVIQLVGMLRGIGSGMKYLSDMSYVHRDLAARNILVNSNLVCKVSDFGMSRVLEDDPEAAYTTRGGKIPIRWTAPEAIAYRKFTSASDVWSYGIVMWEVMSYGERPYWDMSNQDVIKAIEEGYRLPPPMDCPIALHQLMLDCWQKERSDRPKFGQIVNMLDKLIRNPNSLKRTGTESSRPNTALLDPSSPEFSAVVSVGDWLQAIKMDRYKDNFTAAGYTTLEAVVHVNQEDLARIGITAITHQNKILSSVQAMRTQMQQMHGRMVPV
UniProt O94921, sequence (whole entry, looked up): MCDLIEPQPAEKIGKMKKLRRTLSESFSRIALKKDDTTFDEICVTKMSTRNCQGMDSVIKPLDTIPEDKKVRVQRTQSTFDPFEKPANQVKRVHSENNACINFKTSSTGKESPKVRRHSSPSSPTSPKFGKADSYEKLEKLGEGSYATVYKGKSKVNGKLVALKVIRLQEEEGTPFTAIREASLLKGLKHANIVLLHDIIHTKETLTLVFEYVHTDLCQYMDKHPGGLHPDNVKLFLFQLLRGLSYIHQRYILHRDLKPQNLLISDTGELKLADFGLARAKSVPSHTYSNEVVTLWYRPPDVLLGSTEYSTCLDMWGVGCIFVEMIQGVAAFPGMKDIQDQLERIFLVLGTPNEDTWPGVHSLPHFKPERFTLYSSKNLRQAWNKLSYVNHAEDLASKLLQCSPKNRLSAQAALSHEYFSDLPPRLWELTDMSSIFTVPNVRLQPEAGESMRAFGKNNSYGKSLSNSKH

SMILES	target	test	system	setting	IC50
COc1ccc(C2=NN(C3CCCCCC3)C(=O)[C@@H]3CC=CC[C@H]23)cc1-c1ccc(C(=O)NCC(N)=O)cc1 (relative stereo)	PDEB1 (Trypanosoma brucei, UniProt Q8WQX9)	enzyme activity, inhibitor, scintillation proximity		with: 0.5 µM substrate	0.0316 µM
CCCOc1nc(N)nc(N)c1OCCCOc1ccccc1CCC(=O)O	uncharacterized protein (Mycobacteroides abscessus, UniProt B1MD46)	enzyme activity, inhibitor, NADPH fluorescence		with: 1 nM enzyme	> 5 µM
Cc1cc(C(=O)NCc2ccc(CN)cc2)c(C)n1Cc1ccc(Cn2ccccc2=O)cc1	F12				> 10 µM
COCC(=O)N1CCC[C@H](C(=O)NCc2nc(-c3ccc(OC)cc3)cs2)C1	PSMB1/PSMB8/PSMB3 (Homo sapiens, UniProt P20618+P28062+P49720)				> 30 µM
Cc1ccc2nc(-c3ccccc3)cc(NCCCN3CCCCC3)c2c1	Low molecular weight phosphotyrosine protein phosphatase isoform A	enzyme activity, inhibitor		with: OMFP substrate	> 80 µM
Nc1nccc2cc(CNC(=O)c3cnn(Cc4ccc(Cn5ccccc5=O)cc4)c3)ccc12	F12				> 10 µM
Cc1nc2ccc(Cl)cc2c(=O)n1NC1=NC(=O)CS1	Pancreatic alpha-amylase	enzyme activity, inhibitor			458 ± 9.19 µM
Cc1nn(-c2nc3c(F)cc(F)cc3s2)c(O)c1C(c1ccc(C(F)(F)F)cc1)c1c(C)nn(-c2nc3c(F)cc(F)cc3s2)c1O	CGAS (Homo sapiens, UniProt Q8N884)	enzyme activity, inhibitor, pyrophosphatase-coupled		with: ATP and GTP 80 µM	8.4 ± 0.8 µM
Fc1ccc(/C=C/C=N/NC(=S)NCc2ccc(Br)cc2)cc1	Urease subunit alpha	enzyme activity, indophenol method			23.2 ± 0.4 µM
CC[C@@H]1[C@H](F)C(=O)N[C@@H]1COc1nccc2cc(C(N)=O)c(OC)cc12	CDK14 (Homo sapiens, UniProt O94921)	ATP-site binding, ActivX KiNativ profiling	THP-1 cell lysate	Lys2 PFTAIRE1 probe site	> 5 µM
O=C(O)CCCN1C(=O)/C(=C2/C(=O)N(Cc3ccc(F)cc3)c3ccccc32)SC1=S	Serotonin N-acetyltransferase	inhibitor, stopped-flow UV		with: serotonin 100 µM, acetyl-CoA 100 µM	58 µM
NCc1ccc(CNC(=O)c2cnn(Cc3ccc(Cn4ccccc4=O)cc3)c2)cc1	F12				> 10 µM
COc1ccccc1-c1cc(NCCCN2CCCCC2)c2ccccc2n1	Low molecular weight phosphotyrosine protein phosphatase isoform A	enzyme activity, inhibitor		with: OMFP substrate	2.87 µM
CC[C@H](C)[C@H](NC(=O)[C@H](Cc1ccccc1)NC(=O)[C@H](Cc1ccc(O)cc1)NC(=O)[C@@H]1CCCN1C(=O)[C@@H](N)Cc1ccc(O)cc1)C(=O)N1CCC[C@H]1C(=O)N[C@@H](CC(C)C)C(=O)NCC(=O)N[C@H](CCCCN)C(=O)NCC(=O)N[C@@H](CCC(=O)O)C(=O)N[C@H](C(=O)N[C@@H](CC(N)=O)C(=O)N[C@@H](CC(C)C)[C@@H](O)CC(=O)N[C@H](C(=O)N[C@@H](C)C(=O)N[C@@H](CCC(=O)O)C(=O)N1CCC[C@@H]1C(=O)N[C@@H](CCCCNC(=O)CCC(=O)O[C@H]1CC[C@@]2(C)C(=CC[C@H]3[C@@H]4CC[C@H]([C@H](C)CCCC(C)C)[C@@]4(C)CC[C@@H]32)C1)C(N)=O)C(C)C)C(C)C	Beta-secretase 1 (BACE1, Homo sapiens, UniProt P56817)	Aβ40 lowering, AlphaLISA	HEK293 APP695		5e-05 µM
Cc1nc2ccc(Br)cc2c(=O)n1/N=C/c1ccc(C(=O)O)cc1	MAL12	enzyme activity, inhibitor	Saccharomyces cerevisiae	with: 4-nitrophenyl glucopyranoside	16.4 ± 0.54 µM
O=C(O)CCCCCN1C(=O)/C(=C2/C(=O)N(Cc3ccc(F)cc3)c3ccccc32)SC1=S	Serotonin N-acetyltransferase	inhibitor, stopped-flow UV		with: serotonin 100 µM, acetyl-CoA 100 µM	27 ± 22 µM
C[C@@H]1CN(C(=O)c2ccc(NC(=O)c3cc(O[C@H](C)c4c(Cl)ccc(F)c4Cl)c(N)nn3)cc2)C[C@H](C)N1	ALK (Homo sapiens, UniProt Q9UM73)	enzyme activity, inhibitor		with: ATP 1 mM	0.0009 µM
O=C(O)Cc1ccc(CN2C(=O)/C(=C3/C(=O)N(Cc4ccc(F)cc4)c4ccccc43)SC2=S)cc1	Serotonin N-acetyltransferase	inhibitor, stopped-flow UV		with: serotonin 100 µM, acetyl-CoA 100 µM	9.9 ± 11 µM
OC[C@H]1O[C@@H](Oc2cc3c4c(c2)[C@@H]([C@@H]2c5cc(O)cc6c5[C@@H](c5cc(O)cc(O)c5[C@H]2c2ccc(O)cc2)[C@H](c2ccc(O)cc2)O6)[C@H](c2ccc(O)cc2)c2c(O)cc(O)cc2[C@H]4[C@H](c2ccc(O)cc2)O3)[C@H](O)[C@@H](O)[C@@H]1O	Pancreatic alpha-amylase	enzyme activity, inhibitor, HPAEC-PAD		with: maltoheptaose substrate	> 100 µM
O=C1NC(=O)/C(=C2/C(=O)N(Cc3ccc(F)cc3)c3ccccc32)S1	Serotonin N-acetyltransferase	inhibitor, stopped-flow UV		with: serotonin 100 µM, acetyl-CoA 100 µM	> 60 µM
O=C(Oc1cc(O)cc2c1C[C@@H](OC(=O)c1cc(O)c(O)c(O)c1)[C@@H](c1cc(O)c(O)c(O)c1)O2)c1cc(O)c(O)c(O)c1	PTPN22 (Homo sapiens, UniProt Q9Y2R2)			pH 6.5	0.05 ± 0.003 µM
Cn1cc2c(C(=O)O)ccc(NS(=O)(=O)c3ccc(Cl)c(Cl)c3)c2n1	HSD17B2 (Homo sapiens, UniProt P37059)	enzyme activity, inhibitor		with: β-estradiol	30 µM
c1ccc(-c2cc(NCCN3CCCCC3)c3ccccc3n2)cc1	Low molecular weight phosphotyrosine protein phosphatase isoform A	enzyme activity, inhibitor		with: OMFP substrate	3.49 µM

SMILES	target	test	system	setting	IC50
N=C(N)c1ccc(CNC(=O)c2cnn(Cc3ccccc3)c2)cc1	F12				> 40 µM
Cc1nc2ccc(Cl)cc2c(=O)n1NC(=O)CCl	Pancreatic alpha-amylase	enzyme activity, inhibitor			440 ± 7.07 µM
c1ccc(-c2cc(NCCCN3CCOCC3)c3ccccc3n2)cc1	Low molecular weight phosphotyrosine protein phosphatase isoform A	enzyme activity, inhibitor		with: OMFP substrate	7.68 µM
[Fe+2].c1ccc(CN(CCN(Cc2ccccn2)Cc2ccccn2)Cc2ccccn2)cc1	Proteasome subunit beta type-7, in 20S proteasome (PSMB7, Homo sapiens, UniProt Q99436)	trypsin-like activity, inhibitor, purified 20S proteasome		pH 7.4, with: 20 µM Bz-VGR-AMC	> 1000 µM
CN1CCN(c2ccc(Nc3ncc4cc(C#N)c(=O)n(C5CCCC5)c4n3)cc2)CC1	EPHA4 (Homo sapiens, UniProt P54764)				0.104 µM
C=CC(=O)Nc1cc(Nc2nccc(Nc3cc(Cl)c(F)cc3C(C)(C)O)n2)c(OC)cc1N1CC[C@@H](N(C)C)C1	EGFR		mouse		1.14 µM
COC1CCC(C[C@H](NC(=O)c2cnc(C)s2)C(=O)N[C@@H](CC(C)C)C(=O)N[C@H](/C=C/S(C)(=O)=O)Cc2ccc(CN)cc2)CC1 (stereo partly drawn)	PSMB7 (Homo sapiens, UniProt Q99436)	inhibitor, biochemical			0.281 µM
C/C=C(\C)c1cc(O)c(C)c2c1Oc1c(C)c(O)cc(/C(C)=C/C)c1C(=O)O2	CFTR (Homo sapiens, UniProt P13569)	chloride current, inhibitor, short-circuit current	T84 cells	with: forskolin, CPT-cAMP and genistein	~0.2 µM
CC(=O)c1ccc2cc(S(=O)(=O)Nc3ccccc3)ccc2c1	STAT3 (Homo sapiens, UniProt P40763)	tyrosine phosphorylation, inhibitor, ELISA, measured: phospho-Tyr705			5.87 µM
Fc1ccc(/C=C/C=N/NC(=S)Nc2cccc(Cl)c2Cl)cc1	Urease subunit alpha	enzyme activity, indophenol method			29 ± 0.5 µM
COc1c(Cl)cccc1Nc1c(-c2ccncc2OC[C@@H]2COCCO2)[nH]c2c1C(=O)NCC2	MAPK14 (Homo sapiens, UniProt Q16539)	kinase activity, inhibitor, TR-FRET		median value, with: ATP 2 mM	0.13 µM
CC[C@H](C)[C@H](NC(=O)[C@H](CS)NC(=O)[C@H](CCC(=O)O)NC(=O)[C@H](C)NC(=O)[C@@H](NC(=O)[C@@H](N)CCCNC(=N)N)[C@@H](C)CC)C(=O)N[C@@H](CC(C)C)C(=O)NCC(=O)N[C@@H](CCSC)C(=O)O	HLA class I histocompatibility antigen, B alpha chain, allele B*08:01 (Homo sapiens, UniProt P01889)	binding, competitor, radioligand competition		two days, room temperature, HLA-B*08:01	> 40 µM
Cc1ccc(NC(=S)N/N=C/C=C/c2ccc(F)cc2)c(C)c1	Urease subunit alpha	enzyme activity, indophenol method			7 ± 0.6 µM
FC(F)(F)c1cccc(Nc2ncnc3ccc(-c4ccoc4)cc23)c1	EGFR	kinase activity, inhibitor, HotSpot radiometric		with: ATP 10 µM	0.00438 µM
CC(C)Cn1c(=O)n(C)c(=O)c2nc(/C=C\CCCO)c(Cc3cccc4ccccc34)nc21	Monocarboxylate transporter 1 (Slc16a1, Mus musculus, UniProt P53986)	lactate transport	MCF7 expressing Slc16a1	10 min, with: [14C]lactate	0.116 µM
O=C1/C(=C2/C(=O)N(Cc3ccc(F)cc3)c3ccccc32)SC(=S)N1CCCCO	Serotonin N-acetyltransferase	inhibitor, stopped-flow UV		with: serotonin 100 µM, acetyl-CoA 100 µM	> 60 µM
C=CC(=O)Nc1cccc(Sc2nc(Nc3ccc(N4CCN(C)CC4)cc3)ncc2Cl)c1	Epidermal growth factor receptor, with GRB2 (EGFR, Homo sapiens, UniProt P00533, T790M)	EGFR-GRB2 interaction, NanoBiT	cells expressing EGFR T790M	1 h, with: EGF 300 ng/mL	0.0427 µM and 0.043 µM
Fc1ccc(/C=C/C=N/NC(=S)Nc2cccc(F)c2)cc1	Urease subunit alpha	enzyme activity, indophenol method			15.1 ± 1.9 µM
Fc1cccc(-c2cc(NCCCN3CCCCC3)c3ccccc3n2)c1	Low molecular weight phosphotyrosine protein phosphatase isoform A	enzyme activity, inhibitor		with: OMFP substrate	1.84 µM
COc1cc(/C=N/n2c(C)nc3ccc(Br)cc3c2=O)ccc1O	MAL12	enzyme activity, inhibitor	Saccharomyces cerevisiae	with: 4-nitrophenyl glucopyranoside	25.8 ± 1.41 µM
NC(=O)c1ccc(-c2cc(NCCCN3CCCCC3)c3ccccc3n2)cc1	Low molecular weight phosphotyrosine protein phosphatase isoform A	enzyme activity, inhibitor		with: OMFP substrate	0.67 µM
Cc1ccc(S(=O)(=O)Nc2ccc(F)cc2NS(=O)(=O)c2ccc(C)cc2)cc1	Protein lin-28 homolog B (LIN28B, Homo sapiens, UniProt Q6ZN17)	pre-let-7d binding to Lin28B, inhibitor			14.4 µM
